Measurements from different studies.
Each numbered part is a random draw from the data of one study; scales do not carry over between parts. Values joined by “and” are separate records of one study, mostly repeats; a detail may differ. Positions count from the first letter of the parent shown.
Sequence of UniProt Q9UQM7 (whole entry, looked up): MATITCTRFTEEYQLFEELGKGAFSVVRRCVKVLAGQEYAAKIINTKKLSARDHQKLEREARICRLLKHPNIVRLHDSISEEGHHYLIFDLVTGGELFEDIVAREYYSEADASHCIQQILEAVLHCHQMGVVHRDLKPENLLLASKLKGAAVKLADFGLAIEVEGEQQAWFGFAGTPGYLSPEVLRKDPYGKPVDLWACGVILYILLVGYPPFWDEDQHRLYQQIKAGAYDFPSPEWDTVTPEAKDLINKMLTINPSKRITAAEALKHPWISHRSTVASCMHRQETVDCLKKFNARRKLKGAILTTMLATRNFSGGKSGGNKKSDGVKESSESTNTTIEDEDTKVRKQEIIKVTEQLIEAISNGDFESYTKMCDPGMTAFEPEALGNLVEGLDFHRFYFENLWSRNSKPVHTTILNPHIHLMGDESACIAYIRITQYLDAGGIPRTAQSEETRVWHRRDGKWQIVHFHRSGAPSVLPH
Sequence of UniProt P08631 (whole entry, looked up): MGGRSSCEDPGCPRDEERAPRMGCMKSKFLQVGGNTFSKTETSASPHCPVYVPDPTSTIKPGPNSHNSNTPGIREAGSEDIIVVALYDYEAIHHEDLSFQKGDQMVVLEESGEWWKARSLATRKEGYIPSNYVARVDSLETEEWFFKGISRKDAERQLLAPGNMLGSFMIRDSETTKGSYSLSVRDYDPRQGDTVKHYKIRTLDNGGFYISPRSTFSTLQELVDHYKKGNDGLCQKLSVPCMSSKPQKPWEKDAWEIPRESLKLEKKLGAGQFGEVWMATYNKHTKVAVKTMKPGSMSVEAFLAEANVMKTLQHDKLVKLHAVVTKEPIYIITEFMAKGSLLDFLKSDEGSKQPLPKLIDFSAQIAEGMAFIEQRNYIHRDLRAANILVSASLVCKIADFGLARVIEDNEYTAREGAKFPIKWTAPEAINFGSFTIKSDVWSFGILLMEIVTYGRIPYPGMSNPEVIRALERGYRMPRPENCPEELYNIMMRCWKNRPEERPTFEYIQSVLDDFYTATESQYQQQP
Sequence of UniProt Q9HC98 (whole entry, looked up): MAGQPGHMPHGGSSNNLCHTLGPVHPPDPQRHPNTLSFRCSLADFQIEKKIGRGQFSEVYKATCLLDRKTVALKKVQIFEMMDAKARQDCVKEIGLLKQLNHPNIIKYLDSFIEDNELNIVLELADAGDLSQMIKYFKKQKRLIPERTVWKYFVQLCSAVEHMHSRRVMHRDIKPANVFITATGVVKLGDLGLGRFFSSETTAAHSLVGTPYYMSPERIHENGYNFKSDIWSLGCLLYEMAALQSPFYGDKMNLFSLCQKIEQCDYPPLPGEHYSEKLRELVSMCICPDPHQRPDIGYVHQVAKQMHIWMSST
Sequence of UniProt Q16288 (whole entry, looked up): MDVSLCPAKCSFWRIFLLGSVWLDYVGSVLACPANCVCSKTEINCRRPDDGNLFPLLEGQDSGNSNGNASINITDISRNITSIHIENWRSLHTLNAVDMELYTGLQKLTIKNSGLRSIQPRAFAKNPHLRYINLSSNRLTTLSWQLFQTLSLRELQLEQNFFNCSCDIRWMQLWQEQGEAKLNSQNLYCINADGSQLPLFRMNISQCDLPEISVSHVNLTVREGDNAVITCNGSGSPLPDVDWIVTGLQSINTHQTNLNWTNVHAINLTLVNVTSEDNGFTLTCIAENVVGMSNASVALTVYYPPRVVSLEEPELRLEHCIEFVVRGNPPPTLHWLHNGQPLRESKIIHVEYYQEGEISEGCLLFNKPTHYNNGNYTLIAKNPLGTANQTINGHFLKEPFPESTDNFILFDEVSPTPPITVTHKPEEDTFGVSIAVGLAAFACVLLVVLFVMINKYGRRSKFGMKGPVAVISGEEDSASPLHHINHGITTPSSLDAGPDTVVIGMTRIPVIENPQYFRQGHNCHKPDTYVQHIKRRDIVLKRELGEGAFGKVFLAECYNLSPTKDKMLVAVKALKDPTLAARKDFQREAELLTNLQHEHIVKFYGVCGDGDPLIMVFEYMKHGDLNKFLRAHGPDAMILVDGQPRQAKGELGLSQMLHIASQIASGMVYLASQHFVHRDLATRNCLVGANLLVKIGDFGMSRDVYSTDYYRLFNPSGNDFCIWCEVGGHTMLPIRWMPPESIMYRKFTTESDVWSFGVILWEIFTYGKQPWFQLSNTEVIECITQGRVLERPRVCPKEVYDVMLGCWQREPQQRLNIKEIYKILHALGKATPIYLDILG
Sequence of UniProt Q9HAZ1 (whole entry, looked up): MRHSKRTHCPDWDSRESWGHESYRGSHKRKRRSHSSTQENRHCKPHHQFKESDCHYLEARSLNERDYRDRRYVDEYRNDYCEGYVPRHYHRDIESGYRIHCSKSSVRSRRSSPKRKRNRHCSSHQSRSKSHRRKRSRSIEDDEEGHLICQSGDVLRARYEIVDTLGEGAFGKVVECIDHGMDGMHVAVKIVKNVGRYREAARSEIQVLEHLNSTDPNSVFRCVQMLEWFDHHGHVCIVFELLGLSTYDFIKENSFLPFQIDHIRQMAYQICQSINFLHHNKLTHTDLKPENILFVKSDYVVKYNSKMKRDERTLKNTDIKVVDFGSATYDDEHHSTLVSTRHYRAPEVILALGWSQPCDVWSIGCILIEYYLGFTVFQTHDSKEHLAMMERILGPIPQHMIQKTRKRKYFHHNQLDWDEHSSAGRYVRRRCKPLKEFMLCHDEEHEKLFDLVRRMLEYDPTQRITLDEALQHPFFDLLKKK
Sequence of UniProt P42679 (whole entry, looked up): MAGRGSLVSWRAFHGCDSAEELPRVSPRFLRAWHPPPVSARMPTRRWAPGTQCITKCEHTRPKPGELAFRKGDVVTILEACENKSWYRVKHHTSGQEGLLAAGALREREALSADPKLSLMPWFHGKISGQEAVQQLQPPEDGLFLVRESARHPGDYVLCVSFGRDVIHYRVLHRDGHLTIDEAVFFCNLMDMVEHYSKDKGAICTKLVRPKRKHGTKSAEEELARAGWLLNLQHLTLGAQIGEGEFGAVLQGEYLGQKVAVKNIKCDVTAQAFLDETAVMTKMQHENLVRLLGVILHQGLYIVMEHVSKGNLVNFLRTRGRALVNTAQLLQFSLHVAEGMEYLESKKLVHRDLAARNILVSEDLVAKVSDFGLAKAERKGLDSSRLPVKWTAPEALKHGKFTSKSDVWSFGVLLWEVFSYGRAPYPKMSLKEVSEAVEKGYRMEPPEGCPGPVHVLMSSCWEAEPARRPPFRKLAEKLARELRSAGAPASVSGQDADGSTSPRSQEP
Sequence of UniProt O14920 (whole entry, looked up): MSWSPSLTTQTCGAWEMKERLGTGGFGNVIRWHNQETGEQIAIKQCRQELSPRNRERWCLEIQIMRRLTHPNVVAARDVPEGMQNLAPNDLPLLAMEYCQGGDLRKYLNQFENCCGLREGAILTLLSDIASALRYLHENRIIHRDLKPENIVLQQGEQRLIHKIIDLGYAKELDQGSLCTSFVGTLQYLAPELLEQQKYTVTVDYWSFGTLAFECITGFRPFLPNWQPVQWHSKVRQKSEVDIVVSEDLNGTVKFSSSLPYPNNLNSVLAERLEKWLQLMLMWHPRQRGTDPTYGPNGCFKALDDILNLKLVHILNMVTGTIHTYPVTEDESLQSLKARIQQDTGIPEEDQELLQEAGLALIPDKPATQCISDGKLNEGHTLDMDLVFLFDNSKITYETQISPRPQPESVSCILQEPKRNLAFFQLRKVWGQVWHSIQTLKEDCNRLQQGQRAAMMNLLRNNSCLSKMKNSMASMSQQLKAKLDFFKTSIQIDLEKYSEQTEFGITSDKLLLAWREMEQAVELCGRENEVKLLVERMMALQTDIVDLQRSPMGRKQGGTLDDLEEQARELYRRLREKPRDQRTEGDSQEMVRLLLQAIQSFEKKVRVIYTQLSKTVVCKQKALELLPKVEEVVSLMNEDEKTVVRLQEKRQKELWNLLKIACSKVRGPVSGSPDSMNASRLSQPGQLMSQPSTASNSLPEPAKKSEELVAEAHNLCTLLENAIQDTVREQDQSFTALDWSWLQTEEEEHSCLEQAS
Sequence of UniProt Q86Y07 (whole entry, looked up): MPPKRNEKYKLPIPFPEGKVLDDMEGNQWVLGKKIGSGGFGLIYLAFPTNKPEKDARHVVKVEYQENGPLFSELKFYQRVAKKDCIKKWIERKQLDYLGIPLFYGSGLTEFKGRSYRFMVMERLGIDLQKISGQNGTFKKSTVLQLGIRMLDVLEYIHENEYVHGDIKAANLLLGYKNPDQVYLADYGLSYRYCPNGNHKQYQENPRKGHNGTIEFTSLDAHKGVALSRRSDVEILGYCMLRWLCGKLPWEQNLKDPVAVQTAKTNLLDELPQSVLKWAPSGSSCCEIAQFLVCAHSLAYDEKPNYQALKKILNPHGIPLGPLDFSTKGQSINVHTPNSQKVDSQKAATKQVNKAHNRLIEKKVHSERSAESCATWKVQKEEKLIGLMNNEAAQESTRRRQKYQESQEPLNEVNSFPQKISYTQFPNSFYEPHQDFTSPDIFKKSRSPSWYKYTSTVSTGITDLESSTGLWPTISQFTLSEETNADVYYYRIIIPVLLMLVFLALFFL

Set 1
SMILES: Cc1cc2c(C(N)=O)c(N)n(-c3c(C)ccc(O)c3C)c2nc1C
Measurement: inhibition
LN-229; cell proliferation; 41.15 nM: -7.95% and -15.9% and -12.8%
LN-229; cell proliferation; 4.572 nM: -1.55% and -10.5% and -2.66%
RKO; cell proliferation; 13.72 nM: 2.12% and -1.51%
HuCCT-1; cell proliferation; 13.72 nM: 0.24% and 1.77% and 2.98%
KLE; cell proliferation; 1.524 nM: 0.45% and -1.56% and -1.67%
HCC1806; cell proliferation; 10000 nM: 99.9%
NCI-H1568; cell growth; 3333.33 nM: 74.8%
RKO; cell proliferation; 41.15 nM: -3.28% and -4.84%

Set 2
SMILES: CC[C@H](C)c1nc2cc(Nc3ccnc4ccc(S(=O)(=O)C(C)C)cc34)ccc2s1.Cl
Cell line: HT-29
Effect on: necroptosis protection
Technique: CCK-8
Together with: TNF-α SMAC mimetic zVAD
Measurement: viability
2.5 µM: 38.2% and 27.3% and 40.4% and 76.8% and 28.9%
0.313 µM: 18.8% and 12.1% and 12.4% and 19.3%
10 µM: 73.4% and 92% and 73% and 77.6%

Set 3
Target: CCNB2, cyclin fold, Cln2 fusion (human)
Technique: yeast growth competition, sequencing
Matrix: yeast
Setting: weak parent motif
Relative to: not given
Reading: higher = stronger binding
Measurement: normalised enrichment score
Starting sequence: viral docking peptide; KGVKRKLFAEDSS; partner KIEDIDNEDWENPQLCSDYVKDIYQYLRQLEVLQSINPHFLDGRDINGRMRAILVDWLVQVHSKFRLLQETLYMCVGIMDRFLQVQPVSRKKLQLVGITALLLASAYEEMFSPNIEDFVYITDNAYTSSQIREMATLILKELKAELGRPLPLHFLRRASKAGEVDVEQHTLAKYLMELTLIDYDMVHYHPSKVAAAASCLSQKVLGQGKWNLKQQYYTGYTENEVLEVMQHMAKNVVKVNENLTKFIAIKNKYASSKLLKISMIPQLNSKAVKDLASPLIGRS
KGVKRKLPAEDSS [F8P]: 0.16
KGVKRKLFAPDSS [E10P]: 0.987
KGVKHKLFAEDSS [R5H]: 0.398
KNVKRKLFAEDSS [G2N]: 0.312
KGVKEKLFAEDSS [R5E]: 0.25
KIVKRKLFAEDSS [G2I]: 0.84
KYVKRKLFAEDSS [G2Y]: 0.289
KGVKRKLFAFDSS [E10F]: 0.577
KGVKRKLFAEDLS [S12L]: 0.856
KGTKRKLFAEDSS [V3T]: 0.247
KGVDRKLFAEDSS [K4D]: -0.116
KGVIRKLFAEDSS [K4I]: 0.777
KGVKRKLFSEDSS [A9S]: 0.578
KGVKRKLFAYDSS [E10Y]: 0.15
KGVKRKGFAEDSS [L7G]: 0.379
KGNKRKLFAEDSS [V3N]: 0.13
KGVKRKLWAEDSS [F8W]: 0.231
KGVKRKLFKEDSS [A9K]: 0.532
KGVKRKLFDEDSS [A9D]: 0.969
KEVKRKLFAEDSS [G2E]: 0.714

Set 4
SMILES: Cc1sc(C(=O)NC2COC2)cc1-n1cc(NC(=O)Nc2c(F)cccc2Cl)cn1
Effect on: enzyme activity
Tested at: 10 µM
Relative to: untreated control
Measurement: remaining activity
MATK (Homo sapiens, UniProt P42679): 97.3%
Cyclin-dependent kinase 2, with cyclin O (CDK2, Homo sapiens, UniProt P24941): 105%
VRK2 (Homo sapiens, UniProt Q86Y07): 100%
HCK (Homo sapiens, UniProt P08631): 92.5%
IKBKB (Homo sapiens, UniProt O14920): 82.1%
CLK4 (Homo sapiens, UniProt Q9HAZ1): 101%
NEK6 (Homo sapiens, UniProt Q9HC98): 93.3%
NTRK3 (Homo sapiens, UniProt Q16288): 85.1%

Other studies, line by line
C[C@]12CC[C@@H](O)C[C@H]1CC[C@@H]1[C@@H]2CC[C@]2(C)C(=O)CC[C@@H]12  inhibition (Calcium/calmodulin-dependent protein kinase type II subunit alpha (CAMK2A, Homo sapiens, UniProt Q9UQM7); enzyme activity, inhibitor; 10 µM): -57%
